Published values of several laboratories.
Compare with care: the assays were run in different laboratories. “And” joins repeats or separate records; there may be more than shown. Numbers after ± are the reported error.

Structure (SMILES) = COc1cccc(Oc2ccccc2NC(=O)CNC(=O)c2cccc3ccccc23)c1; system = esterase-deficient SCID mice, male; setting = oral, 40 mg/kg/day, 14 days, toxicity study; endpoint = unconjugated bilirubin; value = 0.1 mg/dL
Structure (SMILES) = C[C@]1(CO)Cc2ncn(-c3ccc(C#N)c(Cl)c3)c2C(=O)O1; system = human; setting = all doses, European multiple ascending dose; endpoint = drug-related TEAEs; value = 15.6%
Structure (SMILES) = C[C@]12CC[C@@H]3c4ccc(O)cc4CC[C@H]3[C@@H]1CCC2=O; assay = ultrafiltration; system = cow milk whey; setting = 2000 nM nominal in whole milk; endpoint = dose fraction in permeate; value = 13.7%
Structure (SMILES) = CC(C)C[C@H](NC(=O)[C@H](C)NC(=O)[C@@H](NC(=O)[C@H](CCCNC(=N)N)NC(=O)[C@H](CC(C)C)NC(=O)[C@H](Cc1c[nH]c2ccccc12)NC(=O)[C@@H]1CCCN1C(=O)[C@@H](N)CCCCN)C(C)C)C(=O)N[C@@H](CS)C(=O)N1CCC[C@H]1C(=O)NCC(=O)O; system = sheep red blood cells; setting = 512 µM, 1 h, 37 °C; endpoint = hemolysis; value = 0.88% and 0.91% and 1.32%
Structure (SMILES) = COc1cc2c(Oc3ccc4[nH]c(C)cc4c3F)ccnc2cc1OCC1(N)CC1; system = paediatric recurrent refractory sarcoma; setting = 8 mg; endpoint = grade 1 or 2 ALP elevation; value = 0%
Structure (SMILES) = Oc1ccc(CSCc2ccc(O)cc2)cc1; system = ICR mice male; setting = oral, 3000 mg/kg, day 8, acute toxicity; how to read = relative to: day 1; endpoint = body weight gain; value = 5.12 ± 0.89 g
Structure (SMILES) = O=C(Nc1ccccc1)C1CCN(C(=O)Oc2cccnc2)CC1; assay = psychotropic effects VAS; system = healthy women; setting = 100 mg; how to read = relative to: pre-dose baseline, direction not given; endpoint = change in Surroundings score; value = 0.2
Structure (SMILES) = O=C(O)C(O)(c1cccs1)c1cccs1; assay = measured: metabolite; system = human, plasma; setting = oral, 10 mg once daily, 5 days, median; endpoint = dose-normalised free Cmax; value = 0.0144 (ng/mL)/mg
Structure (SMILES) = CO[C@H]1C[C@@H]2CC[C@@H](C)[C@@](O)(O2)C(=O)C(=O)N2CCCC[C@H]2C(=O)O[C@H]([C@H](C)C[C@@H]2CC[C@@H](OC(=O)NCCOCCOCCOCCOCCOCCOCCOCCOCCC(=O)N3CCc4cc(Cn5nc(-c6ccc7oc(N)nc7c6)c6c(N)ncnc65)ccc4C3)[C@H](OC)C2)C[C@@H](O)[C@H](C)/C=C(\C)[C@@H](O)[C@@H](OC)C(=O)[C@H](C)C[C@H](C)/C=C/C=C/C=C/1C; system = patients with advanced solid tumours; setting = intravenous, 1.6 mg/3 mg weekly, grade ≥3; endpoint = incidence of Fatigue TRAE; value = 0%
Structure (SMILES) = CC[C@H](C)[C@H](NC(=O)[C@H](CC(C)C)NC(=O)[C@H](Cc1c[nH]c2ccccc12)NC(=O)[C@H](CCC(N)=O)NC(=O)[C@@H](NC(=O)[C@H](Cc1ccccc1)NC(=O)[C@H](C)NC(=O)[C@H](CCCCNC(=O)COCCOCCNC(=O)COCCOCCNC(=O)CC[C@H](NC(=O)CCCCCCCCCCCCCCCCCCC(=O)O)C(=O)O)NC(=O)[C@H](CCC(N)=O)NC(=O)[C@H](C)NC(=O)[C@@H](NC(=O)[C@H](CCCCN)NC(=O)[C@H](CC(=O)O)NC(=O)[C@H](CC(C)C)NC(=O)C(C)(C)NC(=O)[C@@H](NC(=O)[C@H](CO)NC(=O)[C@H](Cc1ccc(O)cc1)NC(=O)[C@H](CC(=O)O)NC(=O)[C@H](CO)NC(=O)[C@@H](NC(=O)[C@H](Cc1ccccc1)NC(=O)[C@@H](NC(=O)CNC(=O)[C@H](CCC(=O)O)NC(=O)C(C)(C)NC(=O)[C@@H](N)Cc1ccc(O)cc1)[C@@H](C)O)[C@@H](C)O)[C@@H](C)CC)[C@@H](C)CC)C(C)C)C(=O)N[C@@H](C)C(=O)NCC(=O)NCC(=O)N1CCC[C@H]1C(=O)N[C@@H](CO)C(=O)N[C@@H](CO)C(=O)NCC(=O)N[C@@H](C)C(=O)N1CCC[C@H]1C(=O)N1CCC[C@H]1C(=O)N1CCC[C@H]1C(=O)N[C@@H](CO)C(N)=O; system = human; setting = subcutaneous, 5 mg, Cockcroft-Gault creatinine clearance; endpoint = AUC(0-tlast) slope versus CLcr; value = -118 ng.h/mL per mL/min
Structure (SMILES) = CCN1CCN(Cc2ccc(Nc3ncc(F)c(-c4cc(F)c5nc6n(c5c4)[C@H](C)CCC6)n3)nc2)CC1; system = advanced solid tumour patients; setting = dose not given, Phase Ia monotherapy; endpoint = Proteinuria incidence, grade ≥3; value = 0%
Structure (SMILES) = CCc1ccc(CC/C=C/c2ccc3c(c2)C(=O)CC3)cc1; system = Sprague-Dawley rat, female, blood; setting = oral, 450 mg/kg/day, 14 days; endpoint = MCV; value = 57.8 fL
Structure (SMILES) = O=C(O)CCCOc1ccc(F)cc1-c1cc(-c2ccccc2C(F)(F)F)n(-c2ccccc2)n1; system = Crl:CD(SD) rats, female, blood; setting = iv, 25 µg/kg, 14 days; endpoint = haematocrit; value = 41.1%

Repeated from above:
Structure (SMILES) = CC(C)C[C@H](NC(=O)[C@H](C)NC(=O)[C@@H](NC(=O)[C@H](CCCNC(=N)N)NC(=O)[C@H](CC(C)C)NC(=O)[C@H](Cc1c[nH]c2ccccc12)NC(=O)[C@@H]1CCCN1C(=O)[C@@H](N)CCCCN)C(C)C)C(=O)N[C@@H](CS)C(=O)N1CCC[C@H]1C(=O)NCC(=O)O; system = sheep red blood cells; setting = 512 µM, 1 h, 37 °C; endpoint = hemolysis; value = 0.88% and 0.91% and 1.32%
